Measured values gathered from unrelated publications.
Numbered parts are unrelated; each lists some results of a single study. Positions count from the first letter of the parent shown.

Study 1
Target: Prothrombin, mature alpha-thrombin (F2, Homo sapiens, UniProt P00734)
Technique: aptamer microarray, sandwich
Molecule type: DNA with 2'F-ANA
Medium: in vitro
Tested at: 200 nM
Notes: whole 15-mer aptamer, many near background
Together with: Cy3 exosite-II aptamer, 400 nM
Reading: higher = stronger binding
Strand: GGTTGGTGTGGTTGG
Modification	mean fluorescence intensity [a.u.]
2'F-ANA at 1 3 6 9 14	76.5
2'F-ANA at 1 3 4 5 7 8 10	47.4
2'F-ANA at 1 3 4 13	146
2'F-ANA at 3 4 9 11 13 15	523
2'F-ANA at 2 5 6 8 9 10 11	51.2
2'F-ANA at 1 7 13	152
2'F-ANA at 1 4 6 7 10	56.9
2'F-ANA at 2 4 5 6 7 8 9 10 14	50.2
2'F-ANA at 1 3 4 5 6 8 10 11 12 15	53.6
2'F-ANA at 2 3 4 5 7 8 9 10 11 12 15	59.4
2'F-ANA at 3 4 7 12 15	1030

Study 2
Target: ABI1, truncated, D143A, DHFR fusion (Arabidopsis thaliana)
Technique: DHFR PCA, deep sequencing
Medium: yeast
Notes: methotrexate growth selection, single substitutions
Together with: (+)-ABA 0.032 µM
Reference: wild-type fitted maximum
Reading: higher = stronger binding
Starting sequence: PYL1, truncated, DHFR fusion (Arabidopsis thaliana); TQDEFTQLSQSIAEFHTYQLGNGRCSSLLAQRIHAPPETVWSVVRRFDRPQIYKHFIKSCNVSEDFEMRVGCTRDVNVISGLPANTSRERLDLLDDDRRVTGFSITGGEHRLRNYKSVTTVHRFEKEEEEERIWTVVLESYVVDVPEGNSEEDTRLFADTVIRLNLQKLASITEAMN; partner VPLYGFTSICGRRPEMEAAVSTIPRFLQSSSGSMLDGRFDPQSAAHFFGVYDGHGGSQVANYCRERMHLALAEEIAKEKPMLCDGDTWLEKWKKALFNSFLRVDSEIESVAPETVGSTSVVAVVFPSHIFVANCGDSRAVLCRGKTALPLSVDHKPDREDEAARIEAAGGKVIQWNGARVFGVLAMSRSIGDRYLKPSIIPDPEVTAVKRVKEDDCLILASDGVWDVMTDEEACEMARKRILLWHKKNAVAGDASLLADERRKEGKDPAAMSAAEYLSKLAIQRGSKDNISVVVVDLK
Substitution	relative binding score [%]
V43R	0.602
G102R	0.336
S63W	-4.34
R155E	-2.82
H34S	16.4
L166H	3.94
R32G	3.29
L8H	4.64

Study 3
Target: CCNE2, cyclin fold, Cln2 fusion (human)
Technique: yeast growth competition, sequencing
Medium: yeast
Notes: weak parent motif
Reference: not given
Reading: higher = stronger binding
Starting sequence: RB1 docking peptide (human); PKPLKKLRFDIEG
Substitution	normalised enrichment score
I11Q	-0.0413
K5F	-0.321
L7M	0.94
D10R	2.13
I11K	0.467
L4Y	0.934
R8M	0.5
P1V	0.462
I11A	0.279
E12R	-0.0436

Other studies, line by line
Substance	target	assay	system	setting	scale	measurement	value
PhoQ, residues 284 288 289 292 302 303 AGGLSV	PhoP, residues 12 14 15 18 19 STWGI (Escherichia coli, UniProt P23836)	Sort-seq, refers to: YFP reporter	E. coli	PhoQ-PhoP variant library, together with: 10 µM Mg2+	reference: high Mg2+ state, higher = stronger signaling	fold induction	0.426

A few entries again (study 3):
Substitution	normalised enrichment score
I11Q	-0.0413
K5F	-0.321
L7M	0.94
D10R	2.13
I11K	0.467
